{"data": "Measured values gathered from unrelated publications", "note": "Compare with care: the assays were run in different laboratories. Numbers after ± are the reported error."}
{"SMILES": "N#CC(C#N)=NNc1ccc(OC(F)(F)F)cc1", "tested on": "Plasmodium falciparum", "test": "parasite growth", "test system": "K1", "endpoint": "IC50", "result": "18300 nM"}
{"SMILES": "C#C[C@]1(CO)O[C@@H](n2ccc(N)nc2=O)C[C@@H]1O", "tested on": "HIV-1 T215F", "test": "MTT", "test system": "MT4", "endpoint": "IC50", "result": "30 ± 13.9 nM"}
{"SMILES": "CC[C@H](C)[C@H](NC(=O)[C@H](C)NC(=O)CNC(=O)[C@H](Cc1ccccc1)NC(=O)[C@@H](NC(=O)[C@H](CCC(N)=O)NC(=O)[C@H](Cc1c[nH]cn1)NC(=O)[C@H](CC(C)C)NC(=O)[C@H](C)NC(=O)[C@H](CCCCN)NC(=O)CNC(=O)[C@@H](NC(=O)[C@H](CO)NC(=O)[C@@H](NC(=O)[C@H](Cc1ccccc1)NC(=O)[C@@H](NC(=O)CNC(=O)CNC(=O)[C@H](CC(C)C)NC(=O)[C@H](CO)NC(=O)CNC(=O)[C@H](Cc1ccccc1)NC(=O)[C@H](CC(=O)O)NC(=O)[C@H](Cc1c[nH]c2ccccc12)NC(=O)[C@H](C)NC(=O)[C@@H](NC(=O)[C@H](CC(=O)O)NC(=O)CNC(=O)[C@H](CC(C)C)NC(=O)[C@@H](NC(=O)[C@H](C)NC(=O)[C@@H](N)CCSC)[C@@H](C)CC)[C@@H](C)O)C(C)C)[C@@H](C)O)[C@@H](C)CC)C(C)C)C(=O)N[C@@H](Cc1ccc(O)cc1)C(=O)O", "tested on": "dengue virus", "test": "viral replication, plaque reduction", "test system": "LLC-MK2, New Guinea-2", "endpoint": "IC50", "result": "~10000 nM"}
{"SMILES": "Cn1cnc(Cn2c(=O)[nH]/c(=N\\c3cc4cn(C)nc4cc3Cl)n(Cc3cc(F)c(F)cc3F)c2=O)n1", "test system": "human, mild renal impairment, plasma", "setting": "oral, 375 mg single dose, 3 h", "endpoint": "unbound fraction", "result": 0.0143}
{"SMILES": "CCc1c(C(=O)C(N)=O)c2c(OCC(=O)O)cccc2n1Cc1ccccc1", "tested on": "C2C12", "setting": "10 µM, with: AP venom", "how to read": "reference: venom alone", "endpoint": "viability difference", "result": "29.4%"}
{"SMILES": "C=C(C)[C@@H]1CC[C@]2(C(=O)NCCCCCCCCCNC(=O)[C@H](CC(N)=O)NC(=O)OC(C)(C)C)CC[C@]3(C)[C@H](CC[C@@H]4[C@@]5(C)CC[C@H](OC(=O)CC(C)(C)C(=O)O)C(C)(C)[C@@H]5CC[C@]43C)[C@@H]12", "tested on": "Human immunodeficiency virus 1", "test": "viral replication, ELISA", "test system": "MT4, NL43", "setting": "96 h", "endpoint": "IC50", "result": "≤ 50 nM"}
{"SMILES": "N#C[C@]1(CO)O[C@@H](n2cnc3c(N)nc(N)nc32)C[C@@H]1O", "tested on": "HIV-1 M184V", "test": "MTT", "test system": "MT4", "endpoint": "IC50", "result": "4.4 ± 3.2 nM"}
{"SMILES": "O=C(Nc1ccccc1CO)c1ccccc1Sc1ccc([N+](=O)[O-])cc1", "tested on": "HIV-1", "test": "viral replication, refers to: RT activity", "test system": "H9 expressing A3G, LAI, X4-tropic wild type", "setting": "day 7", "endpoint": "IC50", "result": "112000 nM"}
{"SMILES": "C=C(C)[C@@H]1CC[C@]2(C(=O)NCCCCCCCCNC(=O)[C@H](CCC(N)=O)NC(=O)OC(C)(C)C)CC[C@]3(C)[C@H](CC[C@@H]4[C@@]5(C)CC[C@H](OC(=O)CC(C)(C)C(=O)O)C(C)(C)[C@@H]5CC[C@]43C)[C@@H]12", "tested on": "Human immunodeficiency virus 1", "test": "viral replication, ELISA", "test system": "MT4, NL43", "setting": "96 h", "endpoint": "IC50", "result": "≤ 50 nM"}
{"SMILES": "Nc1ncnc2c([C@@H]3N[C@H](CO)[C@@H](O)[C@H]3O)c[nH]c12", "tested on": "Marburg marburgvirus", "test": "virus production", "test system": "HeLa, Musoke", "setting": "1.6 µM", "endpoint": "supernatant virus titre", "result": "5e+06 PFU/mL"}
{"SMILES": "Cc1nc(C(CN)NC(=O)c2ccc(-c3ccc4c(c3)OCO4)[nH]2)sc1CO (stereo not drawn)", "tested on": "human immunodeficiency virus 1", "test": "viral replication", "test system": "PBMC", "setting": "168 h", "endpoint": "IC50", "result": "2800 ± 600 nM"}
{"SMILES": "CNC(=O)[C@@H](NC(=O)[C@H](CC(C)C)[C@H](O)C(=O)NO)C(C)(C)C", "tested on": "human fibrinogen", "test": "SDS-PAGE", "test system": "Daboia russelii", "setting": "concentration not given, unit not given, with: RJ venom", "how to read": "reference: untreated fibrinogen", "endpoint": "remaining fibrinogen γ chain", "result": 0.573}
{"SMILES": "COc1ccccc1NC(=O)c1ccccc1Sc1ccc(N)cc1", "tested on": "HIV-1", "test": "viral replication, refers to: RT activity", "test system": "H9 expressing A3G, LAI, X4-tropic wild type", "setting": "day 7", "endpoint": "IC50", "result": "20000 nM"}
{"SMILES": "CC[C@H](C)[C@H](NC(=O)[C@H](CC(C)C)NC(=O)[C@H](Cc1c[nH]c2ccccc12)NC(=O)[C@H](CCC(N)=O)NC(=O)[C@@H](NC(=O)[C@H](Cc1ccccc1)NC(=O)[C@H](C)NC(=O)[C@H](CCCCNC(=O)COCCOCCNC(=O)COCCOCCNC(=O)CC[C@H](NC(=O)CCCCCCCCCCCCCCCCCCC(=O)O)C(=O)O)NC(=O)[C@H](CCC(N)=O)NC(=O)[C@H](C)NC(=O)[C@@H](NC(=O)[C@H](CCCCN)NC(=O)[C@H](CC(=O)O)NC(=O)[C@H](CC(C)C)NC(=O)C(C)(C)NC(=O)[C@@H](NC(=O)[C@H](CO)NC(=O)[C@H](Cc1ccc(O)cc1)NC(=O)[C@H](CC(=O)O)NC(=O)[C@H](CO)NC(=O)[C@@H](NC(=O)[C@H](Cc1ccccc1)NC(=O)[C@@H](NC(=O)CNC(=O)[C@H](CCC(=O)O)NC(=O)C(C)(C)NC(=O)[C@@H](N)Cc1ccc(O)cc1)[C@@H](C)O)[C@@H](C)O)[C@@H](C)CC)[C@@H](C)CC)C(C)C)C(=O)N[C@@H](C)C(=O)NCC(=O)NCC(=O)N1CCC[C@H]1C(=O)N[C@@H](CO)C(=O)N[C@@H](CO)C(=O)NCC(=O)N[C@@H](C)C(=O)N1CCC[C@H]1C(=O)N1CCC[C@H]1C(=O)N1CCC[C@H]1C(=O)N[C@@H](CO)C(N)=O", "test system": "healthy human", "setting": "5.0 mg, single ascending dose", "endpoint": "treatment-emergent adverse events", "result": "100%"}
{"SMILES": "Nc1nc(N)c2ncn([C@H]3C[C@H](O)[C@](CO)(CF)O3)c2n1", "tested on": "HIV-1 M184V", "test": "MTT", "test system": "MT4", "endpoint": "IC50", "result": "> 1000 nM"}
{"SMILES": "CC(C)(C)[C@H](NC(=O)C(F)(F)F)C(=O)N1C[C@H]2[C@@H]([C@H]1C(=O)N[C@H](C#N)C[C@@H]1CCNC1=O)C2(C)C", "test system": "human, fasted", "setting": "oral, 150 mg single dose, 28 days, no ritonavir", "endpoint": "participants with related adverse events", "result": "0%"}
{"SMILES": "COc1ccccc1C(=O)Nc1ccccc1OCc1ccc([N+](=O)[O-])cc1", "tested on": "HIV-1", "test": "viral replication, refers to: RT activity", "test system": "H9 expressing A3G, LAI, X4-tropic wild type", "setting": "day 7", "endpoint": "IC50", "result": "34000 nM"}
{"SMILES": "CC[C@]1(CO)O[C@@H](n2cnc3c(N)nc(N)nc32)C[C@@H]1O", "tested on": "HIV-1 T215F", "test system": "MT4", "endpoint": "IC50", "result": "25.9 ± 6.1 nM"}
{"note": "Some of these lines once more:"}
{"SMILES": "COc1ccccc1C(=O)Nc1ccccc1OCc1ccc([N+](=O)[O-])cc1", "tested on": "HIV-1", "test": "viral replication, refers to: RT activity", "test system": "H9 expressing A3G, LAI, X4-tropic wild type", "setting": "day 7", "endpoint": "IC50", "result": "34000 nM"}
